# Measured values from different studies.
# Numbered parts are unrelated; each lists some results of a single study. Several values in a cell are separate wells, animals, samples, runs or records.

# Study 1
# Target: Dual specificity tyrosine-phosphorylation-regulated kinase 1B (DYRK1B, Homo sapiens, UniProt Q9Y463)
# Read-out: enzyme activity
# Action: inhibitor
# Technique: radiometric
# Concentration: 0.5 µM
Compound,remaining activity [%]
CC(C)n1cnc2c(Nc3cccc(Cl)c3)nc(NCCO)nc21,78.8
c1cc(-c2cnn3cc(-c4ccc(OCCN5CCCCC5)cc4)cnc23)ccn1,26.2
O=C1c2ccccc2-c2nc3nnnn3nc21,81
Nc1nc(Nc2ccc(S(N)(=O)=O)cc2)nn1C(=S)Nc1c(F)cccc1F,14.1
FC(F)(F)c1ccc(/C=C/c2nc(COc3ccc(CCCCn4ccnn4)cc3)co2)cc1,96.7
NC(=O)c1ccc(-c2nc(-c3ccc4c(c3)OCCO4)c(-c3ccccn3)[nH]2)cc1,100
COc1cc2c(Nc3ccc(Br)cc3F)ncnc2cc1OCC1CCN(C)CC1,93
CCN(CC)CCCCN1c2ccccc2Oc2ccc(Cl)cc21,101
O=C(O)/C=C/c1cc(Br)c(Br)c(Br)c1Br,79.1
NC(=O)c1cccc(-c2cc(Nc3ccc(OC(F)(F)F)cc3)ncn2)c1,97.9
O=Nc1c(-c2c(O)[nH]c3ccccc23)[nH]c2ccccc12,84.7
Clc1ccc(Nc2nnc(Cc3ccncc3)c3ccccc23)cc1,109
O=c1c(-c2ccc(F)cc2)c(-c2ccncc2)[nH]n1-c1ccc(Cl)cc1,92.2
C[C@@H](N)[C@H]1CC[C@H](C(=O)Nc2ccncc2)CC1,92.5
O=C(c1ccccc1)c1ccc(N2CCOCC2)cc1O,105
CCCCc1c(-c2ccc(O)cc2)[nH]c2nccnc12,73.3
CC(C)(C)c1nc2c3cc[nH]c(=O)c3c3cc(F)ccc3c2[nH]1,88.2
N#CC(c1ccnc(NCCc2cccnc2)n1)c1nc2ccccc2s1 (stereo not shown),53.2
N#C/C(=C(/N)SC1C=CC=CC1)c1cccc(C(O)c2ccncc2)c1 (stereo not shown),99.9
O=C1NC(=O)/C(=C/c2ccc3c(c2)OC(F)(F)O3)S1,101
CCn1cnc2c(Nc3cccc(Cl)c3)nc(N[C@H]3CCCC[C@H]3N)nc21,94.4
CNc1cc2c(Nc3cccc(Br)c3)ncnc2cn1,92.3
CC(C)N(CCC(=O)c1ccc2ccccc2c1)Cc1ccccc1,101
COc1cc2c(N3CCN(C(=O)Nc4ccc(OC(C)C)cc4)CC3)ncnc2cc1OCCCN1CCCCC1,97.9

# Study 2
# SMILES: Cc1ncsc1-c1ccc([C@H](C)NC(=O)[C@@H]2C[C@@H](O)CN2C(=O)[C@@H](NC(=O)CNC(=O)c2ccc(F)c(-c3ccc(N4C[C@@H](C)N(C)[C@@H](C)C4)c(NC(=O)c4c[nH]c(=O)cc4C(F)(F)F)c3)c2)C(C)(C)C)cc1
# Target: WDR5/DCAF1 (Homo sapiens, UniProt P61964+Q9Y4B6)
# Action: degrader
# Technique: HiBiT luminescence
# Time: 24 h
concentration,remaining protein level
8.81 nM,45% and 52.5% and 40.1% and 45.3%
151 nM,20.4% and 28.4% and 23.5% and 27%
1000 nM,20.6% and 19.1% and 23% and 22.6%
1.4 nM,72.4% and 73.7% and 82.1% and 75.3%
3.42 nM,57.7% and 54.9% and 61.4% and 62.3%

# Study 3
# SMILES: CC(C)(C)OC(=O)N[C@H]1CCCCC/C=C\[C@@H]2C[C@@]2(C(=O)NS(=O)(=O)C2CC2)NC(=O)[C@@H]2C[C@@H](OC(=O)N3Cc4cccc(F)c4C3)CN2C1=O
# Genome polyprotein R1181Q NS3 protease: Genome polyprotein, NS3 protease (Hepatitis C virus genotype 1b, UniProt Q9WMX2, R1181Q)
# Genome polyprotein: Genome polyprotein (Hepatitis C virus genotype 1b, UniProt Q9WMX2)
# Genome polyprotein R1181K NS3 protease: Genome polyprotein, NS3 protease (Hepatitis C virus genotype 1b, UniProt Q9WMX2, R1181K)
target,read-out,action,concentration,inhibition [%]
Genome polyprotein R1181Q NS3 protease,,,0.01 µM,22
Genome polyprotein R1181Q NS3 protease,,,0.1 µM,51
Genome polyprotein,protease activity,inhibitor,0.0001 µM,26
Genome polyprotein,protease activity,inhibitor,0.01 µM,93
Genome polyprotein R1181K NS3 protease,,,0.1 µM,57
Genome polyprotein R1181K NS3 protease,,,0.01 µM,18

# Study 4
# SMILES: CS(=O)(=O)c1cc(C2(NC(=O)c3cncc4c3cnn4-c3ccc(F)cc3)CC2)ccn1
# Read-out: cell-free assay
# Concentration: 10 µM
target,inhibition
"Mu-type opioid receptor (OPRM1, Homo sapiens, UniProt P35372)",-7.9%
"Delta-type opioid receptor (OPRD1, Homo sapiens, UniProt P41143)",-5.92%
"D(1B) dopamine receptor (DRD5, Homo sapiens, UniProt P21918)",-0.37%
"Kappa-type opioid receptor (OPRK1, Homo sapiens, UniProt P41145)",1.68%
"Muscarinic acetylcholine receptor M3 (CHRM3, Homo sapiens, UniProt P20309)",22%
"5-hydroxytryptamine receptor 2A (HTR2A, Homo sapiens, UniProt P28223)",20.4%

# Study 5
# Target: vesicular stomatitis virus glycoprotein
# Read-out: viral entry
# Technique: VSVΔG-G pseudovirus
# Concentration: 10 µM
SMILES,inhibition [%]
O=C(/C=C/S/C=C/C(=O)c1ccc(F)cc1)c1ccc(F)cc1,-0.7
COc1cccc(C(=O)N/N=C(\C)c2ccccc2O)c1,35
Cc1nc(Sc2nnc(-c3ccccc3)n2C)c2sc(=S)n(-c3ccccc3)c2n1,9
c1ccc(Nc2nccc(-c3cccnc3)n2)cc1,21
c1ccc(Nc2nccc(-c3ccncc3)n2)cc1,12
NC(=S)N/N=C/c1ncc(C(F)(F)F)cc1Cl,2.4
CNC(=O)C(C#N)(Cc1cc(Cl)cc2c1OCOC2)Cc1cc(Cl)cc2c1OCOC2,-10
c1cc(OCCn2ccnc2)cc(-c2ccnc3[nH]ccc23)c1,8

# Some of these lines once more (study 4):
target,inhibition
"Delta-type opioid receptor (OPRD1, Homo sapiens, UniProt P41143)",-5.92%
"D(1B) dopamine receptor (DRD5, Homo sapiens, UniProt P21918)",-0.37%
"Kappa-type opioid receptor (OPRK1, Homo sapiens, UniProt P41145)",1.68%
